# Assay results collected from several papers.
# Parts stem from different laboratories: compare values within a part only.

# Sample 1
# Target: Ras GTPase-activating protein-binding protein 1, RRM domain (G3BP1, Homo sapiens, UniProt Q13283)
# UniProt Q13283, sequence (whole entry, looked up): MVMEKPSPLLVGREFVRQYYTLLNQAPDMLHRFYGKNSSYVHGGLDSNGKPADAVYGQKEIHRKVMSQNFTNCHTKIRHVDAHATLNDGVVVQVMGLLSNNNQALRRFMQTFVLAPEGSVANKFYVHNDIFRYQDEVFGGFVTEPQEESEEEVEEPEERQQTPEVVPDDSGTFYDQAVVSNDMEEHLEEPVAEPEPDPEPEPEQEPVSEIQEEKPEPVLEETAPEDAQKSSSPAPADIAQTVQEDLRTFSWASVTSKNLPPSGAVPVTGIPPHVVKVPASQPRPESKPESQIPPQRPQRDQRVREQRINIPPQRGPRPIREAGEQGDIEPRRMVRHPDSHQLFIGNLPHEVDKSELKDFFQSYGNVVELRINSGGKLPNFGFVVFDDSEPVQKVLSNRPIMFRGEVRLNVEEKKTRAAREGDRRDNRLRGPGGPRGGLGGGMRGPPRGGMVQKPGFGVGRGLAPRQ
# Technique: RNA Bind-n-Seq
# Form: RNA
# Matrix: in vitro
# Concentration: 1 µM
# Setting: whole 134-nt RNA, ends assumed
# Added: 150 mM KCl
# Baseline: input library
# Reading: higher = stronger binding
# Shared flanks, not repeated: GGGAGUUCUACAGUCCGACGAUC … UGGAAUUCUCGGGUGUCAAGG
Oligonucleotide,log2 enrichment
UCCUGUGCUACACAUCGUAUGUACCGAAUCGGGGAAAAAAAGGGGAAAGGGGAAAGGGGAAAGUAUUAUGUUACGCCGUUCGGAUCUGCA,1
CAAGUCCUGUGCUACACAUCGUAUGUACCGAAUCGGGAAAGGGGAAAGGAAAGGGAAAGUAUUAUGUUACGCCGUUCGGAUCUGCACUUC,-0.165
UUUGCUUGCAGUAUCUGUUUCUCUUCCUAGGCUCAAGUUGGUGACCCAAGCCUAUUGUAAACAAGUGAUUAUCUCAAAGGGAGAUGCCAA,-0.00758
UGAGAAACUUGCUCAAAUAUUGGCAGCUAGACAGUUAGAAAUUAAACAGAUUCCAUCUGAUGGCCACUGUAUGUAUAAAGCCAUUGAAGA,-0.143
ACCAUGCAGGUGGGCAUCUUUGGGAAGUGGGGCAAGGGGGGGAUAGGGAGGGGGGUAACACUUCGGGAACAGGUGGUCCCAGGUCGUUUC,0.806
GUCCUGUGCUACACAUCGUAUGUACCGAAUCGGGGUUUUUGGGGUUUUUGGUUUUUGGGAAAGUAUUAUGUUACGCCGUUCGGAUCUGCA,-0.283
GCAGGAAGUAAAAACAAAUGGAAAUGCUUCGGAUAGUGGCAGGGGUGGGGGUUGCUAAGGAAAGGGUGGGAUGGGAGUGGGUAAAGAGUC,1.25
GAGCUGGAAGCUAUCAAAGCUCGAGUCAGGGAGAUGGAGGAAGAAGCUGAGAAGCUAAAGGAGCUACAGAACGAGGUAGAGAAGCAGAUG,-0.0751
UUGAGAUUGGGUGGAUUCCUAUCAUCUGGAAUUCUGACUCCUCGGGUCUCCUUCUCUAGGUAGCCCAGCAGCAGUGAAGAUGCAGACUGA,-0.415
UGGUAAGAAAUCUGCUUGUUUUAUUAAAAUGCUUAAUUGAAGAAAAUAAUAUUCUUCUGUGAUUAAAAUUAGGAAGAAAUAGAACCAUUU,-0.0906
UCCUCAAGUCCUGUGCUACACAUCGUAUGUACCGAAUCGGUGGGUGGGUGGGAAAGUAUUAUGUUACGCCGUUCGGAUCUGCACUUCCAG,0.373
UCAAGUCCUGUGCUACACAUCGUAUGUACCGAAUCGGUUUGGAGGUUUUUUUGGAAAGUAUUAUGUUACGCCGUUCGGAUCUGCACUUCC,-0.216

# Sample 2
# Target: RNA binding protein fox-1 homolog 2, RRM domain, GST-SBP tag (RBFOX2, Homo sapiens, UniProt O43251-10, residues 100-194)
# Technique: RNA Bind-n-Seq
# Form: RNA
# Matrix: in vitro
# Concentration: 365 nM
# Setting: natural RNA segment, single round, ends assumed
# Baseline: no-protein control
# Reading: higher = stronger binding
# Shared flanks, not repeated: GGGAGUUCUACAGUCCGACGAUC … UGGAAUUCUCGGGUGCCAA
# Construct (chain): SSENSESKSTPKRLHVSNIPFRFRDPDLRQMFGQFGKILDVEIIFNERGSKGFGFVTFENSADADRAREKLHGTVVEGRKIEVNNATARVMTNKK
Oligonucleotide,RBNS enrichment (R)
CUUUCACCCAGCACUGUGGGGGCCUUCAGACUCUGGGGCAGCAGACAUGCUGCUUCCCAUCAGCCAGAGGGGGUCAGGGCUGCCCUGUUGCCAAACAACUCCCUGAGGCC,0.261
GGUGUCUGUAGGUGGACCCGGUCUCCCACAGGUGACAUCAACCUGAGGGUGGCGUCUUUAGAGACAGGCACAUGGGCAGCCCUGUUCCCUUCGCCUCUACUGCGAGGCCU,0.256
AGAAAACUGGACCUGAGGGCAUUAGGAACAUCCUACAGAGUUGUGUUUAGUGUCGUUUGCCAUGGUAUUUCACAGUGAAACAUGGAUACUCUCCACACAUCAUUUACUUC,0.365
AGGGGAGUCAAUUCCUCCAUUUUUCUUUACUAACUUGGGCUUUUCCUUUUGAAUUACUGGGCAGGGAGGUGAGUGGAUGACUUAAUGAUUUCAUGAAUGAAAUAAAGAUU,0.358
AUGGAACAGGCUGUGGCCCCUGAGUCAUCUGAAACCUUGACAGACAGUGAGACAAAUGGAAGUACUCCCCUCGCAGAUUCAGACACUCCAAACGGGACACAGCAAGACGA,0.595
GAGAAAAUUAGCUAUGGGAAGAUAUUAAAAGAUUUCUUAGAUGGAUGUGGUUAAAAUUUUUGUAAUAUAUUUAAAUGUAUAUUUUUGAGAGAGAUACUACAUUGCCAAGG,2.35
AAUUGUACCUGUAAGAAAAUCAUACAACUCAGCAUCCAGUUGGCUUUUUAAGAAUUCUGUACUUCCAAUUUAUAAUGAAUACUUUCUUAGAUUUUAGGUAGGAGGGGAGC,5.15
AUCAGCUCGCCUGGGACUGGCUCUGUGAUAAAAAGACCCCUCCCGCUGGGUUUUCAGACCCCAUGUUGUUGGUCAAUGAAAUAAAGCAUCUUACAGAAGGUGUUAACUGU,0.405
GACCUAAAACACUUUUUAUGUUUGUUAAAAAUAUUUGCUUUUUAAAAUUUAGUUAAAAAUUGAAGUAUUUCUGUCAUAGACAAAAUUACUCUGUUUUAACAUAUUCCUGG,1.73
GACAAGAAGCUUCCUGAGAUGGACAUUGAUUGAUUCCAACACUUGUUUAUAUUAAAACAGACUAUUAUAAAGCUUUAAGUUGUCAACUUUGUUCUGAAUAUCAACUAGAG,0.612
AUCAGAAACUCUGGGGGCGAGGGCUGAAACCUGCUUUCAUAAGCCCUUCAGGCGAUACUGAUGUAAACUAAAGCUUAAAAACCACCGUUUUACUGUGACUUCAUGAAGAA,0.2

# Sample 3
# Target: Interferon regulatory factor 5, full length, phosphomimetic (IRF5, Homo sapiens, UniProt Q13568-2, residues 1-514, S451D/S453D/S456D/S462D)
# Technique: protein-binding microarray
# Form: double-stranded DNA, one strand shown
# Matrix: in vitro
# Concentration: 940 nM top
# Setting: 60-bp whole probe
# Added: salmon DNA 0.4 mg/ml
# Baseline: random background probes
# Reading: higher = stronger binding
# Shared flanks, not repeated: GCCTAGCAC … GTCTTGATTCGCTTGACGCTGCTG
Oligonucleotide,fitted relative affinity [z-score]
GACAGACTGCTTATCCTGACGTGCTAG,-0.62
GACTATTTCAGACTGGAGACGTGCTAG,-0.111
TTAGGACTGCTTCTCTTTTAGTGCTAG,0.362
TCAGTTTTCTGGTTCCCACTGTGCTAG,1.17
TCATCTTGTTCTCTCTGACTGTGCTAG,1.28
TTAGGGATCGACTTTCGGTTAGTGCTA,3.24
TCATGTTGCAGACTCGAACTGTGCTAG,-0.162
GAGGGTCTCGGTCTCGGGACGTGCTAG,2.36
TCACCTCTACCTCCTGGGACTGTGCTA,0.565
TCAATTTTTTTTCACTAACTGTGCTAG,1.38
TAAGGTATCCTACTGCTTTAGTGCTAG,0.065
CTAGGACTGGGTCTCGGTTAGTGCTAG,1.23
TCAATTCTCTACTTGTGACTGTGCTAG,0.986
ATATATATATTGTTAGTGTAGTGCTAG,0.32
TCAGTTTTTATTTTCTGACTGTGCTAG,1.29
TTAGGTGTCGACACTGGGTTAGTGCTA,0.0924
TCATGTCTTAGATTCCTACTGTGCTAG,0.232
GACGAACTGGGGTTTCGAGGCGTGCTA,1.62
GACGGTCTCGGTCTCGCGACGTGCTAG,4.21
TGAGGTTTCGGTTCCGGTTAGTGCTAG,11.6
GGGTCTGTGCCTTTTTTTTTGTGCTAG,0.122
TTAGGACGGCTTCTCCTTTAGTGCTAG,-0.258
TTTGAACTGGGGACTGGATTAGTGCTA,0.0762

# Sample 4
# Target: Phosphate system positive regulatory protein PHO4, full length, GST-tagged (PHO4, Saccharomyces cerevisiae, UniProt P07270, residues 1-312)
# Technique: competition protein-binding microarray
# Form: double-stranded DNA, one strand shown
# Matrix: in vitro
# Concentration: 2 µM
# Setting: whole 60-bp probe, lowest competitor level
# Added: Cbf1 competitor, 0.05 µM
# Reading: higher = stronger binding
# Shared flanks, not repeated: … GTCTTGATTCGCTTGACGCTGCTG
# Target sequence (chain): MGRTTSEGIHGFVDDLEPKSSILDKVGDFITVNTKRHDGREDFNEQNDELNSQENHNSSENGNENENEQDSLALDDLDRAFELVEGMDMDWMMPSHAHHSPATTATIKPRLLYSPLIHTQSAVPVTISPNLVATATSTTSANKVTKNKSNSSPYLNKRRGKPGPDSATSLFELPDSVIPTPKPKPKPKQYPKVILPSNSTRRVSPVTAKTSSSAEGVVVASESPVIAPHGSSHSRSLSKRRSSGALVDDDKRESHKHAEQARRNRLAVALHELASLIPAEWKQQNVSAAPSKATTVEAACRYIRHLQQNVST
Oligonucleotide,fluorescence intensity
ATTGAGATAAAAATAAACGTGGTTACTCCCGAGGCA,12600 a.u.
AATGAAGACCGGGAATTCGTGCCGAGTTCGAGTTTG,5270 a.u.
GGCAGGACGGACTTCCACGTGGAACTTAGGCATTCC,15000 a.u.
ACAAAAGAACATCGGCACGCAATGTTGCTTTGACAA,7110 a.u.
CTTCTGTAAATTTTTCACGTGCTCTGACGCGCCCCG,13300 a.u.
AGGTTTTGCGGCCATCACGTTCGTCGGGACATATGA,9430 a.u.
TCCTCCACAAACAATCTCGTGGTCGTTTATCCATAC,10300 a.u.
CGGGGTTAAGTTTGCGATGTGGGTGGCTTGCAGCAG,5020 a.u.
AAATTACTAAGTTGTGTAGTGGGTGACGCCGTATGA,4130 a.u.
TGCGCAACAACTTGTCACTGCACTTTATGTCTAGAA,3580 a.u.
CGGGGTTAAGTTTGTAGTGTGGGTGGCTTGCAGCAG,5910 a.u.
TCTTTCTGAATTTAGCACGCTTGGCACCGGTAGCGG,7080 a.u.
AAAGCGGTAATTTTTCACGTGGCATCACATATCTAT,14000 a.u.

# Repeated from above (sample 4):
Oligonucleotide,fluorescence intensity
ATTGAGATAAAAATAAACGTGGTTACTCCCGAGGCA,12600 a.u.
AATGAAGACCGGGAATTCGTGCCGAGTTCGAGTTTG,5270 a.u.
GGCAGGACGGACTTCCACGTGGAACTTAGGCATTCC,15000 a.u.
ACAAAAGAACATCGGCACGCAATGTTGCTTTGACAA,7110 a.u.
CTTCTGTAAATTTTTCACGTGCTCTGACGCGCCCCG,13300 a.u.
AGGTTTTGCGGCCATCACGTTCGTCGGGACATATGA,9430 a.u.
TCCTCCACAAACAATCTCGTGGTCGTTTATCCATAC,10300 a.u.
CGGGGTTAAGTTTGCGATGTGGGTGGCTTGCAGCAG,5020 a.u.
AAATTACTAAGTTGTGTAGTGGGTGACGCCGTATGA,4130 a.u.
